Published values pooled from the literature.

CN1Cc2c(Cl)cc(Cl)cc2[C@H](c2cccc(S(=O)(=O)NCCOCCOCCNC(=O)NCCCCNC(=O)NCCOCCOCCNS(=O)(=O)c3cccc([C@@H]4CN(C)Cc5c(Cl)cc(Cl)cc54)c3)c2)C1  plasma concentration (healthy human volunteers, plasma; oral, 15 mg twice daily, day 5, all below quantitation limit): < 0.5 ng/mL
Fc1ccc([C@@H]2CCNC[C@H]2COc2ccc3c(c2)OCO3)cc1  plasma concentration (healthy human subjects; oral, 20 mg once daily, 6 h post-dose, day 13): 45.2 ng/mL
CC(=O)c1c(C)c2cnc(Nc3ccc(N4CCNCC4)cn3)nc2n(C2CCCC2)c1=O  plasma concentration (human patients; oral, 125 mg once daily, 4 h postdose, added: letrozole 2.5 mg): 155 ng/mL
CC[C@H](C)[C@H](NC(=O)[C@H](CO)NC(=O)[C@H](Cc1ccc(O)cc1)NC(=O)[C@H](CC(=O)O)NC(=O)[C@H](CO)NC(=O)[C@@H](NC(=O)[C@H](Cc1ccccc1)NC(=O)[C@@H](NC(=O)CNC(=O)[C@H](CCC(=O)O)NC(=O)[C@H](C)NC(=O)[C@@H](N)Cc1ccc(O)cc1)[C@@H](C)O)[C@@H](C)CC)C(=O)N[C@@H](C)C(=O)N[C@@H](CCSC)C(=O)N[C@@H](CC(=O)O)C(=O)N[C@@H](CCCCN)C(=O)N[C@H](C(=O)N[C@@H](Cc1c[nH]cn1)C(=O)N[C@@H](CCC(N)=O)C(=O)N[C@@H](CCC(N)=O)C(=O)N[C@@H](CC(=O)O)C(=O)N[C@@H](Cc1ccccc1)C(=O)N[C@H](C(=O)N[C@@H](CC(N)=O)C(=O)N[C@@H](Cc1c[nH]c2ccccc12)C(=O)N[C@@H](CC(C)C)C(=O)N[C@@H](CC(C)C)C(=O)N[C@@H](C)C(=O)N[C@@H](CCC(N)=O)C(=O)N[C@@H](CCCCN)C(=O)NCC(=O)N[C@@H](CCCCN)C(=O)N[C@@H](CCCCN)C(=O)N[C@@H](CC(N)=O)C(=O)N[C@@H](CC(=O)O)C(=O)N[C@@H](Cc1c[nH]c2ccccc12)C(=O)N[C@@H](CCCCN)C(=O)N[C@@H](Cc1c[nH]cn1)C(=O)N[C@@H](CC(N)=O)C(=O)N[C@H](C(=O)N[C@H](C(=O)N[C@@H](CCC(N)=O)C(=O)O)[C@@H](C)O)[C@@H](C)CC)C(C)C)[C@@H](C)CC  plasma concentration (ELISA; human, plasma; intravenous, 4.0 pmol/kg/min primed-continuous, 10 to 240 min, steady state, immunoreactive total): ~0.4 nM
O.O.O=C(/C=C/c1ccc(Cl)cc1)N[C@@H](Cc1ccccn1)C(=O)NCC(=O)N1CCC(Oc2cc(C(F)(F)F)ncn2)CC1  plasma concentration (human patients, plasma; dose not given, 24 h, added: docetaxel; reference: Cmax): ≤ 11%
Cc1ccccc1C(=O)Nc1ccc(C(=O)N2CCCC(O)c3cc(Cl)ccc32)c(C)c1 (stereo not drawn)  plasma concentration (healthy humans, plasma; oral, 90 mg, 3 h postdose, day 4, added: rosuvastatin): 409 ng/mL
O=C(c1nc2n(n1)[C@H](c1ccccc1)C[C@@H]2F)C1CC1  plasma concentration (humans, plasma; oral, 75 mg single dose, 24 h, high-fat meal): 210 ng/mL
CCC[C@H](NC(=O)[C@@H]1[C@H]2CCC[C@H]2CN1C(=O)[C@@H](NC(=O)[C@@H](NC(=O)c1cnccn1)C1CCCCC1)C(C)(C)C)C(=O)C(=O)NC1CC1  plasma concentration (human; oral, 750 mg three times daily, 8 h, day 10, geometric mean, added: maraviroc 150 mg twice daily): 1940 ng/mL
C[C@]12C=CC(=O)C=C1CC[C@@H]1[C@@H]2[C@@H](O)C[C@@]2(C)[C@H]1CC[C@]2(O)C(=O)CO  plasma concentration (human castration-resistant prostate cancer, plasma; 10 mg daily, 48 days, median, added: abiraterone acetate 1000 mg daily): 153 nM
COC(=O)N[C@H](C(=O)N1CCC[C@H]1c1nc(-c2ccc3c(c2)O[C@@H](c2ccccc2)n2c-3cc3cc(-c4c[nH]c([C@@H]5CCCN5C(=O)[C@@H](NC(=O)OC)C(C)C)n4)ccc32)c[nH]1)C(C)C  plasma concentration (healthy adult humans, plasma; oral, 50 mg single dose, 24 h, geometric mean, fasted, added: grazoprevir 100 mg fixed-dose combination): 42.6 nM
CNC(=O)c1cc(Oc2ccc(NC(=O)Nc3ccc(Cl)c(C(F)(F)F)c3)c(F)c2)ccn1  plasma concentration (human; dose not given, added: chemotherapy): no effect
CNc1nc(Nc2ccc(-n3cnc(C)n3)c(OC)c2)nc2c1CC[C@H]2c1ccc(F)cc1  plasma concentration (human; oral, 100 mg once daily, 24 h, day 28, multiple ascending dose, geometric mean): 297 ng/mL
